Assay results from different studies.
Each numbered part is a random draw from the data of one study; scales do not carry over between parts.
Chain of UniProt P04629 (whole entry, looked up): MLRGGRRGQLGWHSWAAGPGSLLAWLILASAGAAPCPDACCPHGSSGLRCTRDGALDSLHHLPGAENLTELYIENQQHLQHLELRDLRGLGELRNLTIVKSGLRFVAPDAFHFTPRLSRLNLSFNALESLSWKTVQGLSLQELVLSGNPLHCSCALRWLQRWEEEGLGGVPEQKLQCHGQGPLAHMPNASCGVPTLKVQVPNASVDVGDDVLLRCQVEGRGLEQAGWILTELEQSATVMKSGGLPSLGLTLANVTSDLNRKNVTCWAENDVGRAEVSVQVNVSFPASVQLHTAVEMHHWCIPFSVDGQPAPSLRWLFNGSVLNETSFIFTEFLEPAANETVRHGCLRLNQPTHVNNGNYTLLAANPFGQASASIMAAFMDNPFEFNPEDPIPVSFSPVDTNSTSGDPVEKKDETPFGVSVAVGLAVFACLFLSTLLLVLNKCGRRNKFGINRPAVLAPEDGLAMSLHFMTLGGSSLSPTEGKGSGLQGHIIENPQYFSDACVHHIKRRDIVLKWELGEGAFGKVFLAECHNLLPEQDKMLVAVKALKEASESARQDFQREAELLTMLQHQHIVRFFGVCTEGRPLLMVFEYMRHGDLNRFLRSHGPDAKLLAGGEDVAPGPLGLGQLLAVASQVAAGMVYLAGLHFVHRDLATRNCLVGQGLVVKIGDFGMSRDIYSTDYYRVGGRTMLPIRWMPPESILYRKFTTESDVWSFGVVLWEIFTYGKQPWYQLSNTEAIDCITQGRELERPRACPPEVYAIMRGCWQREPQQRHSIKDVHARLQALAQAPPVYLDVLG
Chain of UniProt Q04912 (whole entry, looked up): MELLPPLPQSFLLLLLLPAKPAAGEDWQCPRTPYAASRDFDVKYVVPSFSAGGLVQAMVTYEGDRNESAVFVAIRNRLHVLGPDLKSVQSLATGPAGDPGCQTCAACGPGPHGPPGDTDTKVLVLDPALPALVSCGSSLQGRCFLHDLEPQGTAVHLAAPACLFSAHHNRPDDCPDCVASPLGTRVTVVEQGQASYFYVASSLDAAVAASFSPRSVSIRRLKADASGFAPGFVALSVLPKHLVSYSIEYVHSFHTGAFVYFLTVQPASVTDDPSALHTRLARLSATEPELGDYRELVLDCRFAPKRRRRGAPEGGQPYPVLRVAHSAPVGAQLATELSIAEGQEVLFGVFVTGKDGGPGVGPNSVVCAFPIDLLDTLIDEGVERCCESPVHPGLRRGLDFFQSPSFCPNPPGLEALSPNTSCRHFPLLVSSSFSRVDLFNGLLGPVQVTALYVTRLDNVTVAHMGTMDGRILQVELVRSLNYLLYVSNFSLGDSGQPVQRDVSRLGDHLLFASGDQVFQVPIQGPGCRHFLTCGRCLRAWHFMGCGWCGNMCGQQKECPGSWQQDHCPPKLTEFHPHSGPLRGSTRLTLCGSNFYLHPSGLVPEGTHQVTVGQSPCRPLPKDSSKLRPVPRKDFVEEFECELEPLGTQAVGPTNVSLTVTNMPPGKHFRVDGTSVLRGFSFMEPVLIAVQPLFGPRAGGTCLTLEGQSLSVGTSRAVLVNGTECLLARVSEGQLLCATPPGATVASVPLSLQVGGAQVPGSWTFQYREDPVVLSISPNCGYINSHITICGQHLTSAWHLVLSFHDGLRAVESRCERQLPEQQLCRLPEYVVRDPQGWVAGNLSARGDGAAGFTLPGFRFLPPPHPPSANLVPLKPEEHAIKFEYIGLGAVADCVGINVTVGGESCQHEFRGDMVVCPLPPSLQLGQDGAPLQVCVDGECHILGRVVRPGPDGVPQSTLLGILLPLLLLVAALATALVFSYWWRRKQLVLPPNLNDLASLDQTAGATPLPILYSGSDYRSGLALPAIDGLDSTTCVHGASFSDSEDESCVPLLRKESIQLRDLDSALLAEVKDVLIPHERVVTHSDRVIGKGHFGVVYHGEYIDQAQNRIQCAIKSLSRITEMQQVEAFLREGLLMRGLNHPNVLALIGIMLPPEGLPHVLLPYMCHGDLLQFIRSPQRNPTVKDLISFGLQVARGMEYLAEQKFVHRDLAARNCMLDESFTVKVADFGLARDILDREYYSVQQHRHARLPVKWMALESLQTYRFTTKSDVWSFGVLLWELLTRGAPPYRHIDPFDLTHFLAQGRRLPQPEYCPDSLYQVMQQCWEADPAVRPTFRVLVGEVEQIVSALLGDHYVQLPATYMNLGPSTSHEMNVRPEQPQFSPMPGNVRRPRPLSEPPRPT
Chain of UniProt P00519 (whole entry, unmodified, looked up): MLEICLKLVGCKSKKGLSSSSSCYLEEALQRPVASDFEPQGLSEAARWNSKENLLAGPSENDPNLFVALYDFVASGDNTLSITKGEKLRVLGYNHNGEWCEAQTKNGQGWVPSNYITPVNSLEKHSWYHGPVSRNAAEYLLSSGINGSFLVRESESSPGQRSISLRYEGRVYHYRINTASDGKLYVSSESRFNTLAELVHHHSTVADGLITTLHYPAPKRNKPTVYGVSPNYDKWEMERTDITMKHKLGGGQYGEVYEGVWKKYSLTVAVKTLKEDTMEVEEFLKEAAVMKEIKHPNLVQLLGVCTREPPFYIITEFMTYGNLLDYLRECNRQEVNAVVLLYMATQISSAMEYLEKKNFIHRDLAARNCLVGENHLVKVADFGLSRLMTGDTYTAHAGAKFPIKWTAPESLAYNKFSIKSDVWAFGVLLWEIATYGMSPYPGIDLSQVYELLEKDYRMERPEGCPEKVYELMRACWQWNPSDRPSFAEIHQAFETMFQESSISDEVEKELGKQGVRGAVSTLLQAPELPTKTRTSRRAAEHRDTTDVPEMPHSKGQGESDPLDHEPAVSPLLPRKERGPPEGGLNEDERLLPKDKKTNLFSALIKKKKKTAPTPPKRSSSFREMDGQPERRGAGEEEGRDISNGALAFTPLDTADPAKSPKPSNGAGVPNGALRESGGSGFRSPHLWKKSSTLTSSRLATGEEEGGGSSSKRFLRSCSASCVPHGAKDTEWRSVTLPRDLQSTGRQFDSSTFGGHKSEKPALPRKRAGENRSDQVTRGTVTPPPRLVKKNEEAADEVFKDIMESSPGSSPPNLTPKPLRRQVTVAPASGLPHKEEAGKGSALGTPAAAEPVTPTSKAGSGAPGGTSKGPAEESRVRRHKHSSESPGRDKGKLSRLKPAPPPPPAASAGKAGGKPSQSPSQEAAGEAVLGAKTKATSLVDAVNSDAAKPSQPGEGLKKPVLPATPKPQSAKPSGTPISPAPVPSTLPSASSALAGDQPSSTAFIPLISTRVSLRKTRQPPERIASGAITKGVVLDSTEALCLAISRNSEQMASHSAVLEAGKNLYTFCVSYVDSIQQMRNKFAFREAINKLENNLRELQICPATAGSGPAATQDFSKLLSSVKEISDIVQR
Chain of UniProt Q16816 (whole entry, looked up): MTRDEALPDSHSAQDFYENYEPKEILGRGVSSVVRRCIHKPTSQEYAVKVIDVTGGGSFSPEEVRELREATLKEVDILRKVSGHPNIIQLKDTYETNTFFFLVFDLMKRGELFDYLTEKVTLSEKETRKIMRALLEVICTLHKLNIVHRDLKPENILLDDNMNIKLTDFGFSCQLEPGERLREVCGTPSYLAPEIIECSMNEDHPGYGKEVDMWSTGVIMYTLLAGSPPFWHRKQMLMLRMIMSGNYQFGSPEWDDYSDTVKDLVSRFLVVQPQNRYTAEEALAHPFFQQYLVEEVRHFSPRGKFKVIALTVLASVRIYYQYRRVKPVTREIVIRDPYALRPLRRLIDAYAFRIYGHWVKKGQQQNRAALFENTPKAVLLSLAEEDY
Chain of UniProt P49336 (whole entry, looked up): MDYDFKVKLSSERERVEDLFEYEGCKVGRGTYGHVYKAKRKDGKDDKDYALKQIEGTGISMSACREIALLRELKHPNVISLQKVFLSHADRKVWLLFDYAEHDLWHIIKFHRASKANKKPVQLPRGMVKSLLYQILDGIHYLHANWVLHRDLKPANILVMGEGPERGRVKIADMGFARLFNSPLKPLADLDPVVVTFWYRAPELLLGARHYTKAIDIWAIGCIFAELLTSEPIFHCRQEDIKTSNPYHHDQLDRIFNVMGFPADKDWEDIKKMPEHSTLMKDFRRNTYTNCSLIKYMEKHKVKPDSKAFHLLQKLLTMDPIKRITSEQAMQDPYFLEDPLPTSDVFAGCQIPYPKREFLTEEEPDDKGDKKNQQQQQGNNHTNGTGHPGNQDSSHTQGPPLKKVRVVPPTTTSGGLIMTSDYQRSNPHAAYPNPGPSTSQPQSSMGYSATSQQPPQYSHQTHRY
Chain of UniProt P32298 (whole entry, looked up): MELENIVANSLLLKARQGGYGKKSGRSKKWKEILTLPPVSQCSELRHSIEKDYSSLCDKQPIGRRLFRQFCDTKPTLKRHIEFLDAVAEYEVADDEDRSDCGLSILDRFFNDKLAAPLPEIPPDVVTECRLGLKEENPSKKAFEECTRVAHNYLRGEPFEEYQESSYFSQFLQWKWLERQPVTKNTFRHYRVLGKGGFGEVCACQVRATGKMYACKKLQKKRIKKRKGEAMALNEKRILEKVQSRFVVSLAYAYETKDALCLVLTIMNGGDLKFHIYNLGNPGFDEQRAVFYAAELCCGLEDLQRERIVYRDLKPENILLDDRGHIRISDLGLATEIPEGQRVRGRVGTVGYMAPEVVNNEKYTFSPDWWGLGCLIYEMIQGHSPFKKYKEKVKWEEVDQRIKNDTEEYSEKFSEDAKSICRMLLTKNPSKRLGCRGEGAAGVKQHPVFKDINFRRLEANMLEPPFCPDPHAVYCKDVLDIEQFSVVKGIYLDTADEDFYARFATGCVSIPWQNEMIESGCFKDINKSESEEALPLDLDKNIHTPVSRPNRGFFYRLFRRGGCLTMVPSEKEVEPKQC
Chain of UniProt Q96PN8 (whole entry, looked up): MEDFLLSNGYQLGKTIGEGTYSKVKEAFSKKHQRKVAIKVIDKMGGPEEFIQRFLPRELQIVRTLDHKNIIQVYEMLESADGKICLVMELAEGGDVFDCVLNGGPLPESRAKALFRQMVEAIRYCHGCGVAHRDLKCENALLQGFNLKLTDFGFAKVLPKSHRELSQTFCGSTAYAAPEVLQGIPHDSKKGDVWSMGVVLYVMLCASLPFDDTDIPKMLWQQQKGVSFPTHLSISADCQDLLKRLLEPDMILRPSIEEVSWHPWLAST

Block 1
SMILES: CC(C)n1cnc(-c2ccc(F)cc2)c1-c1ncc(C(=O)Nc2ccc(N3CCN(C)CC3)cc2)[nH]1
Technique: phase 2a trial
Species: idiopathic pulmonary fibrosis patients
Measurement: patients with ALT increased
30 mg once daily, adverse event grade 2: 0%
30 mg once daily, adverse event grade 3: 0%
dose not given, grade 2, arms pooled: 2%
30 mg once daily, adverse event grade 1: 1%
30 mg once daily, adverse event grade 5: 0%

Block 2
Compound: Cc1nc(Cc2cccc(C(F)(F)F)c2)sc1-c1ccc(C(N)=O)nc1
Technique: competition with immobilised ligand
Concentration: 1 µM
Measurement: remaining binding
Proto-oncogene tyrosine-protein kinase ROS (ROS1, Homo sapiens, UniProt P08922); cell-free assay: 94%
Serine/threonine-protein kinase Nek5 (NEK5, Homo sapiens, UniProt Q6P3R8); binding: 35%
G protein-coupled receptor kinase 4 (GRK4, Homo sapiens, UniProt P32298); cell-free assay: 100%
Serine/threonine-protein kinase 33 (STK33, Homo sapiens, UniProt Q9BYT3); cell-free assay: 91%
Mitogen-activated protein kinase kinase kinase kinase 4 (MAP4K4, Homo sapiens, UniProt O95819); cell-free assay: 80%
Cyclin-dependent kinase 8 (CDK8, Homo sapiens, UniProt P49336); cell-free assay: 100%
High affinity nerve growth factor receptor (NTRK1, Homo sapiens, UniProt P04629); cell-free assay: 64%
Testis-specific serine/threonine-protein kinase 3 (TSSK3, Homo sapiens, UniProt Q96PN8); cell-free assay: 100%
Tyrosine-protein kinase ABL1, phosphorylated (ABL1, Homo sapiens, UniProt P00519, E255K); binding: 85%
Macrophage-stimulating protein receptor (MST1R, Homo sapiens, UniProt Q04912); cell-free assay: 100%
Serine/threonine-protein kinase SIK3 (SIK3, Homo sapiens, UniProt Q9Y2K2); cell-free assay: 75%
Phosphatidylinositol 4,5-bisphosphate 3-kinase catalytic subunit alpha isoform (PIK3CA, Homo sapiens, UniProt P42336); cell-free assay: 88%
Phosphorylase b kinase gamma catalytic chain, skeletal muscle/heart isoform (PHKG1, Homo sapiens, UniProt Q16816); cell-free assay: 84%
Serine/threonine-protein kinase PAK 6 (PAK6, Homo sapiens, UniProt Q9NQU5); cell-free assay: 92%

Block 3
Cell line: mouse MPNST tumor cells
Technique: high-content nuclear imaging
Item: cell number
Concentration: 10 µM
Time: 12 h
Notes: mean of 2 replicates
Reference: plate mean
Reading: higher = more cells
Measurement: nuclei count
CCN(CC)CCOCCOC(=O)C(CC)(CC)c1ccccc1: 3.06 z-score
CN1CCN(C(=O)c2ccc(-n3nc(-c4ccc(C(=O)O)cc4)cc3-c3cc(C(C)(C)C)cc(C(C)(C)C)c3)cc2)CC1: 5.35 z-score
Cc1ccc(S(=O)(=O)Nc2ccc3c(c2)c(C(=O)C(F)(F)F)cn3CC(=O)N[C@@H](CC(C)C)C(=O)O)cc1: 0.69 z-score
CC(C)(C)c1ccc2cc(C#N)c(C#N)cc2c1: -2.05 z-score
CC(Cc1cccc(C(F)(F)F)c1)NCCOC(=O)c1ccccc1 (stereo not drawn): -0.497 z-score

Block 4
Cell line: HaCaT
Concentration: 100 µM
Time: 36 h
Measurement: viability
Cc1c(N(C)C)c(=O)n(-c2ccccc2)n1C: 88.7%
CC(=O)OCC(=O)[C@H]1CC[C@H]2[C@@H]3CCC4=CC(=O)CC[C@]4(C)[C@H]3CC[C@]12C: 92.1%
Oc1ccc(/C=C/c2cc(O)cc(O)c2)cc1: 67.9%
Oc1ccc(OCc2ccccc2)cc1: 48.8%
COc1ccc(OC)c(C(O)CNC(=O)CN)c1 (stereo not drawn): 97.7%
C=CCN1CCCC1CNC(=O)c1cc2[nH]nnc2cc1OC (stereo not drawn): 91.4%

Excerpt of the above (block 4):
Cc1c(N(C)C)c(=O)n(-c2ccccc2)n1C: 88.7%
Oc1ccc(OCc2ccccc2)cc1: 48.8%
CC(=O)OCC(=O)[C@H]1CC[C@H]2[C@@H]3CCC4=CC(=O)CC[C@]4(C)[C@H]3CC[C@]12C: 92.1%
